# Experimental data collected from several papers.
# Numbered parts are unrelated; each lists some results of a single study. Values joined by “and” are separate records of one study, mostly repeats; a detail may differ.

# Series 1
# SMILES: C[C@@H]1CN(c2ccc(-c3cc(C(=O)NCCOCCOCCOCCOCCNC(=O)Cn4cc(-c5[nH]cc(C(=O)N[C@@H](CC(N)=O)c6ccc(F)c(Cl)c6)c5-c5ccc(Cl)cc5F)cn4)ccc3F)cc2NC(=O)c2c[nH]c(=O)cc2C(F)(F)F)C[C@H](C)N1C
# Effect on: thermal unfolding
# Method: differential scanning fluorimetry
# Concentration: 5.5 µM
# Reading: higher = more unfolded
# WDR5: WD repeat-containing protein 5 (WDR5, Homo sapiens, UniProt P61964)
# DCAF1: DDB1- and CUL4-associated factor 1 (DCAF1, Homo sapiens, UniProt Q9Y4B6)
# Chain of UniProt Q9Y4B6 (whole entry, looked up): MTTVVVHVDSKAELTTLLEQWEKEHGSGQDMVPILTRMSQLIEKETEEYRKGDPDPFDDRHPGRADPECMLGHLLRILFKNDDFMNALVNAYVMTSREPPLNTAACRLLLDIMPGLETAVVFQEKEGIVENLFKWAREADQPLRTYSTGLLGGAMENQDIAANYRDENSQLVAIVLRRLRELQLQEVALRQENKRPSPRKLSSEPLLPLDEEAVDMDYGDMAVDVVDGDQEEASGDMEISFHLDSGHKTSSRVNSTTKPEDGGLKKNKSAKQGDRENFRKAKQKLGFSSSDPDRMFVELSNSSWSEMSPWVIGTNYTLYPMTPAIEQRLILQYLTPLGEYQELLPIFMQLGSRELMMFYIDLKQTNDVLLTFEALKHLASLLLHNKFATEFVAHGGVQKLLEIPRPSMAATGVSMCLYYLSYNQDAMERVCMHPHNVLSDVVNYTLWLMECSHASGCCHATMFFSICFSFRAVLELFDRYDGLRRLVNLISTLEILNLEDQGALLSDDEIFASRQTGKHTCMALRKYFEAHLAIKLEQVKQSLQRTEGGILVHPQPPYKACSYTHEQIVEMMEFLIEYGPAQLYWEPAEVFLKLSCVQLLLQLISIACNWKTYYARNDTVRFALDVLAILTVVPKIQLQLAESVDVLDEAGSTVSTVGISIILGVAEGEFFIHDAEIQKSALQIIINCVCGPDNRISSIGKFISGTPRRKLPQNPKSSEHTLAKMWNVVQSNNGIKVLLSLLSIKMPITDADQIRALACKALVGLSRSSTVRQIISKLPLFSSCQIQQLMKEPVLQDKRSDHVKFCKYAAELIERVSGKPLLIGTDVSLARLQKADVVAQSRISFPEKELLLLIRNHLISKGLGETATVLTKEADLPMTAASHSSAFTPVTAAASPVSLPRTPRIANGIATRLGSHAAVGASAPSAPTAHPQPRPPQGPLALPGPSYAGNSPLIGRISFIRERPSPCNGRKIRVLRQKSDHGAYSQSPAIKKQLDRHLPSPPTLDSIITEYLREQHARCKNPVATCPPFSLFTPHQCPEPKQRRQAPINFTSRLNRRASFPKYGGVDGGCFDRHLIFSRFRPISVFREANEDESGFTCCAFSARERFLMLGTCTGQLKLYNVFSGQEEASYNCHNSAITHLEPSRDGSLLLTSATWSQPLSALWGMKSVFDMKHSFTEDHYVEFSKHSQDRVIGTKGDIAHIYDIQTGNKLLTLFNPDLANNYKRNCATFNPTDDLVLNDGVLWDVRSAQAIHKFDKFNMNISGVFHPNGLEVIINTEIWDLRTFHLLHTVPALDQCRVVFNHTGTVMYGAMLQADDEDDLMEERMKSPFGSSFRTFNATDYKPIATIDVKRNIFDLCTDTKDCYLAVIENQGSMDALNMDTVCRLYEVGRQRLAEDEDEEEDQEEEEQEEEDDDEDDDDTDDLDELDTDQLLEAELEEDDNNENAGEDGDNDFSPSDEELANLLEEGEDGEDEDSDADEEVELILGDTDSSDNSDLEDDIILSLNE
target,temperature,SYPRO Orange fluorescence [a.u.]
WDR5,72.61 °C,8050
DCAF1,71.21 °C,53200
WDR5,44.8 °C,14400
WDR5,70.41 °C,6980
DCAF1,67.01 °C,56700
DCAF1,52.2 °C,15900
WDR5,87.21 °C,43100

# Series 2
# SMILES: Cc1ccc(O)c(C)c1-c1cnc2[nH]c(-c3cnc(N4CCC5(CC4)CC(N4CCN(c6ccc(N[C@H]7CCC(=O)NC7=O)cc6F)CC4)CO5)nc3)cc2c1C#N (single isomer, unassigned)
# PKMYT1: Membrane-associated tyrosine- and threonine-specific cdc2-inhibitory kinase (PKMYT1, Homo sapiens, UniProt Q99640)
# Chain of UniProt Q99640 (whole entry, looked up): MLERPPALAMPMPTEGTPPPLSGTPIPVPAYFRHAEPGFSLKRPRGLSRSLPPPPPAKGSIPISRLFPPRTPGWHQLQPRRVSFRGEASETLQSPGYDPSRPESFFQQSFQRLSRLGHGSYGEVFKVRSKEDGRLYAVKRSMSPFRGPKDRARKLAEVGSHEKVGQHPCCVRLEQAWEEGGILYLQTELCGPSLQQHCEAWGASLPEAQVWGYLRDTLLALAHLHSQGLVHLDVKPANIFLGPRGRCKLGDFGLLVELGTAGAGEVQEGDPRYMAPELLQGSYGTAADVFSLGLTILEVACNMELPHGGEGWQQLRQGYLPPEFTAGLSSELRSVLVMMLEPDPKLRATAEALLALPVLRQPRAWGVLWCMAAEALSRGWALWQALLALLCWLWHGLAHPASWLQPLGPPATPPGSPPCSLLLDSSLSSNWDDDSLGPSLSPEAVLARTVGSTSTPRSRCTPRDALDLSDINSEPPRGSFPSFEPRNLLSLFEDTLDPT
target or system,test,system,conditions,degradation
PKMYT1,"degrader, automated immunoblot (Jess)",HCC1569,"0.15 nM, 24 h",13.8%
,"automated immunoblotting, refers to: PKMYT1","mouse, HCC1569 xenograft, tumour","dose not given, 144 h",71% and 63.1% and 49.2% and 59.4% and 73.5% and 57.8%
PKMYT1,"degrader, automated immunoblot (Jess)",,"0.02 nM, 24 h",-5.14% and -11.1%

# Series 3
# Structure (SMILES): CC(C)(C)c1ccc(Oc2ccc3c(c2)OC(O)(C(=O)O)C(=O)N3Cc2ccccc2)cc1 (stereo not drawn)
organism,test,system,conditions,inhibition
Arabidopsis thaliana,root length,Col-0,"25.0 µg/mL, 7 days, seed germination, dark",51.2%
Arabidopsis thaliana,root length,"Col-0, seedlings",12.5 µg/mL,38.5%
Arabidopsis thaliana,root length,Col-0,"3.13 µg/mL, 7 days, seed germination, dark",7.7%
Arabidopsis thaliana,hypocotyl length,Col-0,"3.125 µg/mL, 7 days, seed germination, dark",4.6%
Abutilon theophrasti,fresh weight,,"150 g ai/ha, pre-emergence treatment",24.6% and 25.6% and 21.5%
Alopecurus aequalis,fresh weight,,"150 g ai/ha, pre-emergence treatment",84.2% and 83.1% and 80.5%
Oryza sativa,fresh weight,,"soil surface spray, 150 g ai/ha, 21 days, pre-emergence crop safety",8% and 9.2% and 7%
Eclipta prostrata,fresh weight,,"150 g ai/ha, post-emergence treatment",68.9% and 64.9% and 69.2%
Echinochloa crus-galli,fresh weight,,"150 g ai/ha, post-emergence treatment",49.1% and 49.5% and 49.8%
Alopecurus japonicus,fresh weight,,"150 g ai/ha, pre-emergence treatment",57.7% and 60.4% and 58.9%
Arabidopsis thaliana,hypocotyl length,Col-0,"50.0 µg/mL, 7 days, seed germination, dark",32.3%
Arabidopsis thaliana,root length,Col-0,"50.0 µg/mL, 7 days, seed germination, dark",64.8%
Arabidopsis thaliana,hypocotyl length,"Col-0, seedlings",25 µg/mL,28.2%
Arabidopsis thaliana,root length,"Col-0, seeds","100 µg/mL, 7 d, dark",89.7%

# Other studies, line by line
# MPO: Myeloperoxidase (MPO, Homo sapiens, UniProt P05164)
# Chain of UniProt P05164 (whole entry, looked up): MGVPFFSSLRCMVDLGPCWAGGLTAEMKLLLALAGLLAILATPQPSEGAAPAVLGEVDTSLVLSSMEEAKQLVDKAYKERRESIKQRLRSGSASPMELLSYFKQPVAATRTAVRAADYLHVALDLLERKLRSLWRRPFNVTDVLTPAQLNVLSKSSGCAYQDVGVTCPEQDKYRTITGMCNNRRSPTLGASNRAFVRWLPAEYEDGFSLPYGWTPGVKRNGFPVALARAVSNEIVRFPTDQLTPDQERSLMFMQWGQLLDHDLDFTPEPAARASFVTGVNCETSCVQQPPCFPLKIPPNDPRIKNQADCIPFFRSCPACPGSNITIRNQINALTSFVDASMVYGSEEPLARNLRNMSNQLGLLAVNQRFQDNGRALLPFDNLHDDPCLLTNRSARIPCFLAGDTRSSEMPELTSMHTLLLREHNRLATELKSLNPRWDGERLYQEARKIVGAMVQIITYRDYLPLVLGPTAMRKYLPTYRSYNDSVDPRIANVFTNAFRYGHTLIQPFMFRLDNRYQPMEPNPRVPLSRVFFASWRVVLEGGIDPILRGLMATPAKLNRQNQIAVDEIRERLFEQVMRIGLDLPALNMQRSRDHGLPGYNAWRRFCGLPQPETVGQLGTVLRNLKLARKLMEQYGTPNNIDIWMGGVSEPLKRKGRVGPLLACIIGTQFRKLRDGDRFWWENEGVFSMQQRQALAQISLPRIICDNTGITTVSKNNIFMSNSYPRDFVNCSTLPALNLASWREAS
# E3 ubiquitin-protein ligase NEDD4 HECT domain: E3 ubiquitin-protein ligase NEDD4, HECT domain (Homo sapiens, UniProt P46934)
# Chain of UniProt P46934 (whole entry, looked up): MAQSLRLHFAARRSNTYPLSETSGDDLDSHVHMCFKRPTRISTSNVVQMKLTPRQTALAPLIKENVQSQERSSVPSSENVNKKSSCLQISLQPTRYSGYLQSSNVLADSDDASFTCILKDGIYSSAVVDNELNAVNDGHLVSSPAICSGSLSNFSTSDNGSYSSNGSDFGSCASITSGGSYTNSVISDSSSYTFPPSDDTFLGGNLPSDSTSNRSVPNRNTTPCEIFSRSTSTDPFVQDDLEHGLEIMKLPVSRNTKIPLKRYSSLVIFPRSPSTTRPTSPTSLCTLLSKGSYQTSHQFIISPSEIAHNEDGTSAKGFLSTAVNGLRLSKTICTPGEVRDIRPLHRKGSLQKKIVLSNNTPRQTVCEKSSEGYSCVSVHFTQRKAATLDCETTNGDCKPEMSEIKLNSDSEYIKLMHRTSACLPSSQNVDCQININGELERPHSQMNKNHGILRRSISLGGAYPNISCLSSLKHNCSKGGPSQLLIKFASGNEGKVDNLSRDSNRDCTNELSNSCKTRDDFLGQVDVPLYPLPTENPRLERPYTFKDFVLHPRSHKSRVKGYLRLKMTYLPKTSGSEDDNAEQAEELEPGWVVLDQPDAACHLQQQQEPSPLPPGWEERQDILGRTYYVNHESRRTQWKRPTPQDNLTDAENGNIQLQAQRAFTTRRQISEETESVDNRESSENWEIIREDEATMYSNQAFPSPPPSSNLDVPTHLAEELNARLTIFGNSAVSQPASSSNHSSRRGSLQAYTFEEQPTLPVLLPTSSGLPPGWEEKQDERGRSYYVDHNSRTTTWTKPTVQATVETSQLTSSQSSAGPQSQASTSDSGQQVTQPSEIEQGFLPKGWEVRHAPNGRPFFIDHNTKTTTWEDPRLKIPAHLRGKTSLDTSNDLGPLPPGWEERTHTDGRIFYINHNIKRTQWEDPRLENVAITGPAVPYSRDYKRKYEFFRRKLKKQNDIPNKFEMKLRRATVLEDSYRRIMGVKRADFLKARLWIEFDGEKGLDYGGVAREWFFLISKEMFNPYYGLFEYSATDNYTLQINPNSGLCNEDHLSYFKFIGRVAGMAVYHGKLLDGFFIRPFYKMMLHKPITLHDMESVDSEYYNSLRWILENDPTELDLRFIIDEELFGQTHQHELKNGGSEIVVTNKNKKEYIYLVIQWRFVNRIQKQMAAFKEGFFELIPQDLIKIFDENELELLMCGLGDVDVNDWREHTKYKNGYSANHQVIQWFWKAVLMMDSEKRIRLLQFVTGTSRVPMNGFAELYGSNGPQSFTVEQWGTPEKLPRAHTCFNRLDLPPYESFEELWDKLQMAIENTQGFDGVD
SMILES,target or system,test,system,conditions,how to read,quantity,value
NC/C(=C\F)COc1ccc(Cl)c(-c2cc(=O)[nH]c(=S)n2CC(N)=O)c1,MPO,"enzyme activity, inhibitor, fluorescence",,300 pM,,inhibition,-6.26%
CN(C)C(=O)/C=C/CNCCCN1c2ccccc2CCc2ccc(Cl)cc21.Cl,E3 ubiquitin-protein ligase NEDD4 HECT domain,"enzyme activity, inhibitor, Ub-TR-FRET",HECT domain,11.11 µM,higher = more chain formation,ubiquitin chain formation AUC,124000 a.u. and 127000 a.u. and 126000 a.u.
O=c1[nH]c(=S)n(C[C@H]2CCCO2)c2nc[nH]c12,MPO,"enzyme activity, inhibitor, fluorescence",,0.1235 µM,,inhibition,56.8% and 62.4% and 58.7% and 39.4% and 75.8% and 44.1%
Cc1nc(C)c(C=[N+]([O-])C(C)(C)C)nc1C,,footprint test,MPTP-induced Parkinson's disease mouse model,30 mg/kg,,stride length,6.28 cm and 6.84 cm and 5.52 cm and 6.65 cm and 5.43 cm and 6.14 cm and 6.29 cm and 6.54 cm
CONC(=O)/C=C/CNCCCCN1c2ccccc2CCc2ccc(Cl)cc21.O=C(O)/C=C\C(=O)O,E3 ubiquitin-protein ligase NEDD4 HECT domain,"enzyme activity, inhibitor, Ub-TR-FRET",HECT domain,1.235 µM,higher = more chain formation,ubiquitin chain formation AUC,24100 a.u. and 23000 a.u. and 27600 a.u. and 26000 a.u. and 27800 a.u. and 23300 a.u.
NC/C(=C\F)COc1cccc(Cn2c(=S)[nH]c(=O)c3[nH]cnc32)c1,,,rat liver microsomes,60 min,,remaining compound,95.6% and 98.4% and 73.7% and 92.1%

# For quick reference, copied from above (series 2):
target or system,test,system,conditions,degradation
PKMYT1,"degrader, automated immunoblot (Jess)",HCC1569,"0.15 nM, 24 h",13.8%
PKMYT1,"degrader, automated immunoblot (Jess)",,"0.02 nM, 24 h",-5.14% and -11.1%
